Measurements gathered from unrelated publications.
Lines come from different studies, so protocols differ. Numbers after ± are the reported error.

Compound	assay	test system	setting	tissue uptake [%ID/g]
N=C(N)NCc1ccc(C(=O)NCCCC[C@H](NC(=O)CCCCCCC(=O)NCCCC[C@H](NC(=O)N[C@@H](CCC(=O)O)C(=O)O)C(=O)O)C(=O)O)cc1[131I]		SCID mouse, PC-3 xenografts, stomach	21 h	1.98 ± 3.1
COc1cc2ncnc(Oc3cccc(N[11C](=O)Nc4cc(C(C)(C)C(F)(F)F)on4)c3)c2cc1OC		Balb/c nude mouse, female, A375 melanoma xenograft, skin	6.6 MBq, 30 min	2.45 ± 0.09
O=C(O)CC[C@H](NC(=O)O[C@@H](CCCCNC(=O)c1ccc([18F])cc1)C(=O)O)C(=O)O		mouse, PC-3 PIP/flu xenografts, lung	180 min	0.14 ± 0.04
N=C(N)NCc1ccc(C(=O)NCCCC[C@H](NC(=O)N[C@@H](CCC(=O)O)C(=O)O)C(=O)O)cc1[131I]		SCID mouse, PC-3 xenografts, muscle	2 h	0.24 ± 0.08
C[S]1CC[S]2CC[P](CO)(CO)[99Tc+]12.[C-]#[O+].[C-]#[O+].[C-]#[O+]		female CF-1 mouse, small intestine	intravenous, 4 h	2.2
CC[C@H](C)[C@@H]1NC(=O)[C@@H](NC(=O)CNC(=O)c2ccc(F)cc2)CSSC[C@@H]2NC(=O)[C@H](C)NC(=O)CNC(=O)[C@@H]3CCCN3C(=O)[C@@H]3CSSC[C@@H](C(=O)NCC(=O)O)NC(=O)[C@H](Cc4ccc(O)cc4)NC(=O)CNC(=O)[C@H](CC(N)=O)NC(=O)CNC(=O)[C@H](CCCNC(=N)N)NC(=O)[C@H](CSSC[C@H](NC(=O)[C@H](CCCNC(=N)N)NC(=O)[C@H](Cc4ccccc4)NC(=O)[C@H](CC(C)C)NC(=O)[C@H](CC(C)C)NC(=O)[C@H]([C@@H](C)O)NC(=O)CNC(=O)[C@H](CC(C)C)NC(=O)[C@H](CC(=O)O)NC(=O)[C@H]([C@@H](C)O)NC(=O)[C@H](CCCNC(=N)N)NC(=O)[C@H](CCSC)NC(=O)[C@H](CC(N)=O)NC(=O)[C@H](CC(C)C)NC1=O)C(=O)N[C@@H](CCCNC(=N)N)C(=O)N[C@@H](CCCNC(=N)N)C(=O)N[C@@H](CC(=O)O)C(=O)N[C@@H](CO)C(=O)N[C@@H](CC(=O)O)C(=O)N3)NC(=O)[C@H]([C@@H](C)CC)NC2=O [fluorine-18 labelled]	γ-counting	mouse, lungs		2.9 ± 1.2
C=Cc1cc(O)cc2nc(-c3ccc(O)c([76Br])c3)oc12		female C57BL/6 mouse, liver	1 h, low dose	0.54 ± 0.19
N=C(N)NCc1ccc(C(=O)NCCCC[C@H](NC(=O)N[C@@H](CCC(=O)O)C(=O)O)C(=O)O)cc1[211At]		SCID mouse, PC-3 xenografts, lungs	21 h	1.02 ± 0.21
CN[C@](C)(C[18F])C(=O)O		SCID mouse A549 xenograft, pancreas	15 min post injection	57 ± 10
